Experimental data collected from several papers.
Every numbered part comes from another study and shows a few of its results, in no order. Positions count from the first letter of the parent shown.

Sample 1 — method: RNA Bind-n-Seq; form: RNA; sample: in vitro; tested at: 200 nM; setting: whole 134-nt RNA, ends assumed; together with: 150 mM LiCl; baseline: input library; direction: higher = stronger binding; measurement: log2 enrichment; each molecule: 7-deaza-guanosine replaces G
Target: Ras GTPase-activating protein-binding protein 1, full length (G3BP1, Homo sapiens, UniProt Q13283)
Chain of UniProt Q13283 (whole entry, looked up): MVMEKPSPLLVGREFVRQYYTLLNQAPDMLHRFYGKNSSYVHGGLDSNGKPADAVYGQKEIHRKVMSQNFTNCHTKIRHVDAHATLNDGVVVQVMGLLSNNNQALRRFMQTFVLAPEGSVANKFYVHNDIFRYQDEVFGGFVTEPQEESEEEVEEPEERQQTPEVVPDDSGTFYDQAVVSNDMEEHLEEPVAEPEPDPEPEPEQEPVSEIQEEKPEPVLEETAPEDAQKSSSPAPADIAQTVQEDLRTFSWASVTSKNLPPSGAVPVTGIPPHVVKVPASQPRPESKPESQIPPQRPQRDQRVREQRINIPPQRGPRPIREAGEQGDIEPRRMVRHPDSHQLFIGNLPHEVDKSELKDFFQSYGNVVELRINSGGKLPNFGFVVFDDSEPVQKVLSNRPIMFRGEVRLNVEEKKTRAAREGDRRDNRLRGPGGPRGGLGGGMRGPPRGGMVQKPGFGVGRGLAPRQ
All sequences stand within: GGGAGUUCUACAGUCCGACGAUC … UGGAAUUCUCGGGUGUCAAGG
ACCAUGCAGGUGGGCAUCUUUGGGAAGUGGGGCAAGGGGGGGAUAGGGAGGGGAAAAACACUUUGGGAACAGGUGGUCCCAGGUCGUUUC: 0.317
GUCCUGUGCUACACAUCGUAUGUACCGAAUCGGGGUGGGGAAAGGGGUUUUUUUGGGGAAAGUAUUAUGUUACGCCGUUCGGAUCUGCAC: 0.574
AGUCCUGUGCUACACAUCGUAUGUACCGAAUCGGUUUUUGGGUUUUUGGGUUUUUGGAAAGUAUUAUGUUACGCCGUUCGGAUCUGCACU: -0.574
UCAAGUCCUGUGCUACACAUCGUAUGUACCGAAUCGGAAAGGGGAAAGGAAAGGGAAAGUAUUAUGUUACGCCGUUCGGAUCUGCACUUC: -0.0407
UCAAGUCCUGUGCUACACAUCGUAUGUACCGAAUCGGCCGGGCCGGGGCCGGGGAAAGUAUUAUGUUACGCCGUUCGGAUCUGCACUUCC: 0.0201
GCAGGAAGUAAAAACAAAUGGAAAUGCUUCAGAUAGUGGCAGGGGUGGGGGUUGCUAAGGAAAGGGUGGGAUGGGAGUGGGUAAAGAGUU: 0.0303
CCUCAAGUCCUGUGCUACACAUCGUAUGUACCGAAUCGGAAAAAGGAGGAGGAAAGUAUUAUGUUACGCCGUUCGGAUCUGCACUUCCAG: -0.0946
UAUCAGGAGGGCAGACUUCAAAAGCUACUAAAAAUGAACGGCCCUGAAGAUCUUCCCAAGUCCUAUGACUAUGACCUUAUCAUCAUUGGA: -1.6
GCAGGAAGUAAAAACAAAUGGAAAUGCUUCGGAUAGUGGCAGGGGUGGGGGUUGCUAAGGAAAGGGUCGGAUGGGAGUGGGUAAAGAGUU: -0.0616
AGUCCUGUGCUACACAUCGUAUGUACCGAAUCGGUUUUUUUGGAAAGGUUUUUUUGGAAAGUAUUAUGUUACGCCGUUCGGAUCUGCACU: -2.47
GCAGGAAGUAAAAACAAAUGGAAAUGCUUAGGAUAGUGGCAGGGGUGGGGGUUGCUAAGGAAAGGGUGGGAUGGGAGUGGGUAAAGAGUU: -0.0604

Sample 2 — method: RNA Bind-n-Seq; form: RNA; sample: in vitro; tested at: 100 nM; baseline: input RNA pool; direction: higher = stronger binding; measurement: bound/input enrichment
Target: RING finger protein unkempt homolog, zinc fingers 1-6, SBP tag (UNK, Homo sapiens, UniProt Q9C0B0, residues 30-357)
Chain of UniProt Q9C0B0 (30-357, looked up): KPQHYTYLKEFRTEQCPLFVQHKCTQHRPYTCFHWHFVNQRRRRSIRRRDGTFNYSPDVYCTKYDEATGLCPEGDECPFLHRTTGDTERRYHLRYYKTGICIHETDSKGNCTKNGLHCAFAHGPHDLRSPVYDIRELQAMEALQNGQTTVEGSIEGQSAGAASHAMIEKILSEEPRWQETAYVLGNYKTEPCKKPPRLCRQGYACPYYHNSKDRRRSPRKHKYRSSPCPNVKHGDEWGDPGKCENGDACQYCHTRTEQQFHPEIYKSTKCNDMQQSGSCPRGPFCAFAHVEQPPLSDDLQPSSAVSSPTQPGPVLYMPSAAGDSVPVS
Setting: RNA with constant flanks, vertebrate orthologous sites, ends assumed
All sequences stand within: GGGAGUUCUACAGUCCGACGAUC … CAACAGAGGAUUGAGCAUCA
CCCUCUGAACCCCAUAUCUUCUGUUUCAUAAUGCAGAAGUAUUCUUUUCAAUUAUAUUGUUAGUGGACUUGUUUUAAUUUUAGAGAAACUUUGAGUACAGAUACUGUGAGCUUACAUUGA: 1.77 ratio
AGUAUCCCAGUUGUACCGUGUUGGGUUGGCAUUGUACAGAAAUUAACAGCCAUAUUGGUCUAGAAACGUUAAACAUAAUUUUUUCCAUUUGUACAGGGGUAACGCACUGUAUUAAAUAUG: 1.1 ratio
AAAUUUAUUUCAUGCCCUGGACUCCCUAUCGUACUGAUACUUUAAUAGAAUAUGCUUCGUUAGAAGAUUUCCAAAACAGUCGCCAAACAACGACAUAUAAACUUCCAAAUCGAGUAGAUG: 0.797 ratio
GCACAUGCCGCUAUGACCGAAAUCUGGCUGCCGUAUUUCAAAUUUCAUUCAGAGUCGUUCUAGUGUUUCCUAUUCCCUACCCUUCCUAUGACUCUCAGUGAUGAAGUAUCUUAAGUUUUC: 0.924 ratio
UGUCCUUUCUCACUGUCCCCAGCCGGGGCCGGGGACCGGUGUGUCACUGAGGACCUGCAUUAGAAACAUUUUUUAAAUUGUUGUACAGGAAGAGAUGCGUCUAAAACAGCAUCUCAAAGC: 1.13 ratio
UGCAUUAUUUGACCAGAGUUGAGGUGACAGAAUUCGAAGACAUCAAAUCAGGUUACAGAAUAGAUUUUUAUUUUGAUGAGAAUCCAUACUUUGAAAAUAAAGUUCUCUCCAAAGAGUUUC: 0.656 ratio
CUCUAUGGGCCUCGCAGAGUUGAAAUAAUGGAAGAGGAAAGUGAAUAGUAGUCUUCAUUUUAGUAUUUAUGCUUAGGUGUGAAAAUAAAUGUUAUUUGCUGAUCAUUUCUAUAAUCCAGA: 0.553 ratio

Sample 3 — method: competition protein-binding microarray; form: double-stranded DNA, one strand shown; sample: in vitro; tested at: 2 µM; together with: Cbf1 competitor, 0.05 µM; direction: higher = stronger binding; measurement: fluorescence intensity; all sequences stand within: … GTCTTGATTCGCTTGACGCTGCTG
Target: Phosphate system positive regulatory protein PHO4, full length, GST-tagged (PHO4, Saccharomyces cerevisiae, UniProt P07270, residues 1-312)
Setting: whole 60-bp probe, lowest competitor level
Construct (chain): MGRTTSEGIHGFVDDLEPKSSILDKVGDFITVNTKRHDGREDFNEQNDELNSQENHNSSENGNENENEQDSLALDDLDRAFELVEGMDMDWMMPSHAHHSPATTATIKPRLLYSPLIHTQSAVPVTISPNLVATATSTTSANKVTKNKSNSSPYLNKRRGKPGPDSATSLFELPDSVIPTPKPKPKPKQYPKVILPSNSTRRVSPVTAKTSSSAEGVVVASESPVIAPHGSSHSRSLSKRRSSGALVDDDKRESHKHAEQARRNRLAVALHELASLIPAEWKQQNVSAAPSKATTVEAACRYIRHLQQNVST
TCCTCAGGGACCTCTCACGTGCCGAGTATCAGCCAG: 13600 a.u.
TCAAATTAGACAATTGGCGTGGCCGGACGAGATCGC: 3700 a.u.
TACATCTTTGGCAGCCACGTTTCCCAATACATGGAA: 14500 a.u.
CATCTAACTTTTTTGCACGTGAATTGGATCTTGAGT: 14500 a.u.
CGTCCTAGTGATTGCCGTGTGGGTGCCATGAGGAAG: 8530 a.u.
CTAACGAAGGTTTTTCACGTGCTTTACAAGCCAAGT: 14200 a.u.
AGCAGTATGAACATTCGCGTGTCGGTTATAGTTGGT: 7900 a.u.
AAATTACTAAGTTTTCACGTGGAGTACCCCGTATGA: 13800 a.u.
TGCGCAACAACTTGTCACTGAACTTTATGTCTAGAA: 2840 a.u.
TCGCTTCCATTGCTGCCCGTGAAACTGCAAAGGCCA: 3970 a.u.
AGCAACGACATTCCACACGTGGTGCGGTTCAGCGCG: 17700 a.u.
TCTACTGAAATATCGCACGTCACCGGTACCAACGGC: 5440 a.u.
GATAGGGACGCGCATCATGTGTTGCTACTGTGTTTG: 7390 a.u.
CTTCTTCAGGGTTTGCACGTTGCCTTCATTCGGTTC: 13600 a.u.
AAAGCTGCGGTAAGGCAGGTGATGCTGATTATTAGC: 5080 a.u.
CGGGGTTAAGTTTGCACGGTGGGTGGCTTGCAGCAG: 8180 a.u.
CTTTCCCGATCTTGTTCAGTGGGTGTAGCACATTTG: 4730 a.u.
GGGCTTCGGAGTTAGCACGTTGAAAGGCATCTGCCA: 9050 a.u.

Sample 4 — method: DHFR PCA, deep sequencing; sample: yeast; together with: (+)-ABA 4.8 µM; baseline: wild-type fitted maximum; direction: higher = stronger binding; measurement: relative binding score
Target: ABI1, truncated, D143A, DHFR fusion (Arabidopsis thaliana)
Setting: methotrexate growth selection, single substitutions
Parent: PYL1, truncated, DHFR fusion (Arabidopsis thaliana); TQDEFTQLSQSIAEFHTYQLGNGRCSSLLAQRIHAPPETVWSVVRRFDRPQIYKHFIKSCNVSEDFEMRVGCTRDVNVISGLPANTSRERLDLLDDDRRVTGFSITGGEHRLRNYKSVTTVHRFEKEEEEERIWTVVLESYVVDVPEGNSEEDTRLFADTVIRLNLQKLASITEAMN
Q51C: 25%
I12V: 57.6%
F124I: 84.1%
S63R: 69.7%
R74L: -2.49%
F56W: 53.2%
E109F: -0.569%
L138I: 26.3%
V62A: 16%
E127H: 76.1%
K116Y: -14.4%
D92L: 1.5%
A35M: 2.4%
P37S: 29.2%
N165V: 3.7%
N77K: 83.9%

Sample 5 — method: protein binding microarray; form: double-stranded DNA, one strand shown; sample: in vitro; tested at: not given; baseline: not given; direction: higher = stronger binding; measurement: E-score
Target: Histone acetyltransferase KAT6A, winged helix 1, GST fusion (KAT6A, Homo sapiens, UniProt Q92794, residues 1-85)
Setting: 8-mer, flanks averaged, mean of 2 arrays, mostly near background
Target sequence (chain): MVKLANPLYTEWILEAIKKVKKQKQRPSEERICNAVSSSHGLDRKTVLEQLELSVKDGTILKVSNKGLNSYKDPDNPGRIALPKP
CCTAACTA: -0.0647
GGTTCTAA: -0.00539
AACTGATT: -0.133
ACTTAAGT: -0.179
CCTCGGCG: 0.402
AACAGCAT: -0.0743
CCGCTTTA: 0.264
CCGGTCAG: 0.234
GAAGCTGC: 0.0274
CAAAAGTA: -0.166
ACCCGTCA: 0.326
CGAAACTC: -0.155
GGAGACTA: -0.163
AATGCCTG: -0.269
ACGCATAC: 0.239
AACTAGTA: -0.11
GGGTACCA: -0.0522
GGCATATA: 0.0162
GGTTACAA: 0.0567
CTGATTTC: -0.199

Sample 6 — target: CCNA2, cyclin fold, Cln2 fusion (human); method: yeast growth competition, sequencing; sample: yeast; setting: weak parent motif; baseline: not given; direction: higher = stronger binding; measurement: normalised enrichment score
Parent: RP1L1 docking peptide (human); TLGLGPLSFTLED
TLGLAPLSFTLED [G5A]: -0.564
ALGLGPLSFTLED [T1A]: -0.459
TAGLGPLSFTLED [L2A]: -0.43
TLGLGPLSATLED [F9A]: -0.555
TLGLGPLSFALED [T10A]: -0.358
TLGLGPLSFTLAD [E12A]: -0.0237

A few entries again (sample 4):
I12V: 57.6%
P37S: 29.2%
K116Y: -14.4%
F124I: 84.1%
F56W: 53.2%
Q51C: 25%
A35M: 2.4%
